Experimental data from different studies.
Compare with care: the assays were run in different laboratories.
EGFR: Epidermal growth factor receptor (EGFR, Homo sapiens, UniProt P00533)
EGFR L858R/T790M: Epidermal growth factor receptor (EGFR, Homo sapiens, UniProt P00533, L858R/T790M)
EGFR del746-750: Epidermal growth factor receptor (EGFR, Homo sapiens, UniProt P00533, del746-750)

Compound	tested on	assay	system	conditions	how to read	quantity	result
COc1ccc(-c2nn(-c3ccc(S(C)(=O)=O)cc3)cc2/C=N/N=c2\[nH]c(-c3ccc(Br)cc3)cs2)cc1	EGFR	kinase activity, inhibitor	–	0.01 µM	–	inhibition	37.5%
COc1cc(N2CCN(C)CC2)ccc1Nc1nc(N)n(C(=O)NCc2c(Cl)cccc2Cl)n1	EGFR L858R/T790M	enzyme activity	–	10 µM	relative to: control	remaining activity	11%
CC(C)Cc1ccc(-c2nn(-c3ccc(S(C)(=O)=O)cc3)cc2/C=N/N=c2\[nH]c(-c3ccc([N+](=O)[O-])cc3)cs2)cc1	EGFR	kinase activity, inhibitor	–	0.01 µM	–	inhibition	20.8%
COc1cc2ncnc(Nc3ccc(F)c(Cl)c3)c2cc1OCCCN1CCN(C(=O)CCCCCCCCCCNC(=O)C[C@H](NC(=O)[C@@H]2C[C@@H](O)CN2C(=O)[C@@H](c2cc(C)no2)C(C)C)c2ccc(-c3scnc3C)cc2)CC1	EGFR del746-750	protein degradation, degrader, western blot	HCC827	100 nM	–	duration of degradation	≤ 48 h
CC(C)Oc1cc(N2CCN(C)CC2)ccc1Nc1nc(N)n(C(=O)NCc2ccccc2S(=O)(=O)C(C)C)n1	Epidermal growth factor receptor (EGFR, Homo sapiens, UniProt P00533, L861Q)	enzyme activity	–	10 µM	relative to: control	remaining activity	14%
C=CC(=O)N1CCC(COCC(=O)N2CCN(c3nc(-c4cnc(N)nc4C(F)F)nc(N4CCOC[C@@H]4C)n3)CC2)CC1	EGFR L858R/T790M	KINOMEscan	–	1 µM	relative to: DMSO control	remaining binding	98%
CC(C)C[C@H](NC(=O)[C@H](CO)NC(=O)[C@H](CO)NC(=O)CNC(=O)[C@@H]1CCCN1C(=O)[C@H](Cc1ccc(O)cc1)NC(=O)[C@H](CC(C)C)NC(=O)[C@H](CO)NC(=O)[C@H](CS)NC(=O)[C@H](CC(C)C)NC(=O)[C@@H](N)CC(C)C)C(=O)O	Epidermal growth factor receptor, extracellular domain (EGFR, Homo sapiens, UniProt P00533)	binding, second site, surface plasmon resonance	immobilised soluble EGFR	model, binding, one to two	–	kon	582 M⁻¹ s⁻¹
[2H]c1cc(C)c(NC(=O)c2cnc(Nc3cc(N4CCC(O)CC4)nc(C)n3)s2)c(Cl)c1	EGFR	–	–	0.001 µM	–	inhibition	< 50%
C=CC(=O)N1CCC(C(=O)NCC(=O)N2CCN(c3nc(-c4cnc(N)nc4C(F)F)nc(N4CCOCC4)n3)CC2)CC1	EGFR del746-750	KINOMEscan	–	1 µM	–	remaining binding	95%
CCN(CC)Cc1ccc2cc(COC(=O)Nc3ccc(C(=O)NO)cc3)ccc2c1	OCI-Ly1	–	–	1 µM, 120 h	–	viability	1.3%
COc1cc(N2CCN(C)CC2)ccc1Nc1nc(N)n(C(=S)NCc2c(Cl)cccc2Cl)n1	EGFR	enzyme activity	–	10 µM	relative to: control	remaining activity	3.8%
CC(C)C[C@H](NC(=O)[C@H](CO)NC(=O)[C@H](CO)NC(=O)CNC(=O)[C@@H]1CCCN1C(=O)[C@H](Cc1ccc(O)cc1)NC(=O)[C@H](CC(C)C)NC(=O)[C@H](CO)NC(=O)[C@H](CS)NC(=O)[C@H](CC(C)C)NC(=O)[C@H](CC(C)C)NC(=O)CCCCCNC(=S)Nc1ccc2c(c1)C(=O)OC21c2ccc(O)cc2Oc2cc(O)ccc21)C(=O)O	EGFR	binding, first site, LigandTracer cell binding	A-431	FITC-labelled, model, binding, one to two	–	koff	1.89e-05 s⁻¹
O=C(NC1CCC1)c1ccc2nc(-c3cccc(NS(=O)(=O)NCCN4CCCCC4)c3)cn2c1	Epidermal growth factor receptor (EGFR, Homo sapiens, UniProt P00533, G719S)	enzyme activity	–	10 µM	–	remaining activity	100%
[2H]c1cc(C)c(NC(=O)c2cnc(Nc3cc(N4CCCCC4)nc(C)n3)s2)c(Cl)c1	Epidermal growth factor receptor (EGFR, Homo sapiens, UniProt P00533, T790M)	–	–	0.01 µM	–	inhibition	< 30%
C#Cc1cc(-c2cc(Nc3nc(N[C@@H](C)c4ccc(F)cn4)ncc3Cl)n[nH]2)ccc1C=O	Epidermal growth factor receptor (EGFR, Homo sapiens, UniProt P00533, C797S)	enzyme activity, inhibitor	–	0.2 µM	–	inhibition	9.9%
C[C@@H](c1ccc(-n2cnc3c(N)ncnc32)cc1)N1CCc2nn(C)c(Cc3ccccc3)c2C1=O	EGFR	KINOMEscan	–	0.1 µM	relative to: DMSO control	remaining binding	79%
CCCOc1ccc(OC)c(F)c1C(=O)c1ccc(C(=O)N[C@@H]2CNC[C@H]2NC(=O)c2ccc3[nH]ncc3c2)cc1	EGFR	enzyme activity	–	10 µM	–	remaining activity	105%
CCOc1cc(N2CCN(C)CC2)ccc1Nc1nc(N)n(C(=O)NCc2ccccc2S(=O)(=O)C(C)C)n1	EGFR L858R/T790M	enzyme activity	–	10 µM	relative to: control	remaining activity	34%
COc1ccc(-c2nn(-c3ccc(S(C)(=O)=O)cc3)cc2C=N/N=c2\[nH]c(-c3ccc([N+](=O)[O-])cc3)cs2)cc1	EGFR	kinase activity, inhibitor	–	0.1 µM	–	inhibition	40.9%
O=C(CCCCCN1C(=O)c2cccc3cccc(c23)C1=O)NO	OCI-Ly1	–	–	1 µM, 120 h	–	viability	45.7%

For quick reference, copied from above:
Compound	tested on	assay	system	conditions	how to read	quantity	result
CCCOc1ccc(OC)c(F)c1C(=O)c1ccc(C(=O)N[C@@H]2CNC[C@H]2NC(=O)c2ccc3[nH]ncc3c2)cc1	EGFR	enzyme activity	–	10 µM	–	remaining activity	105%
